Earlier results that unrelated publications cite.
Each line is one published result; not all experiments were run side by side. ± marks the error that the study gave.
Organism: SARS-CoV-2

Structure (SMILES) | assay | system | setting | endpoint | result
N#Cc1cccc(-n2[se]c3ccccc3c2=O)c1 | viral replication, RT-qPCR | Vero |  | EC50 | 2 µM
CCOC(=O)C=CC(CC1CCNC1=O)NC(=O)C(CC(C)C)NC(=O)C(NC(=O)OCc1ccccc1)C(C)OC(C)(C)C (stereo not shown) | viral replication |  |  | EC50 | 3.02 µM
CNCc1ccc(C)c(C(=O)N[C@H](C)c2cccc3ccccc23)c1 |  |  |  | EC50 | 20 µM
CC(C)C[C@H](NC(=O)OCc1ccccc1)C(=O)N[C@@H](C[C@@H]1CCNC1=O)C(O)S(=O)(=O)O (stereo partly shown) |  |  |  | EC50 | 0.7 µM
O=P(O)(O)Oc1c2c(c(OP(=O)(O)O)c3c1C1CC3c3cc4c(cc31)C1CC4c3ccccc31)C1CC2c2cc3c(cc21)C1CC3c2ccccc21 | pseudoparticle entry |  | spike-pseudotyped lentiviral particles | IC50 | 36 µM
Cc1ccc(CNC(=O)c2ccc(F)c(F)c2)cc1C(=O)N[C@H](C)c1cccc2ccccc12 |  |  |  | EC50 | 3.8 µM
Cc1cc(C(=O)N[C@@H](C)C(=O)N[C@H](C(=O)N[C@@H](CC(C)C)C(=O)N[C@H](/C=C/C(=O)OCc2ccccc2)C[C@@H]2CCNC2=O)C(C)C)no1 | viral replication |  |  | EC50 | 16.8 µM
Oc1cc(O)c2c(c1)OC(c1ccc(O)c(O)c1)C(O)C2c1c(O)cc(O)c2c1OC(c1ccc(O)c(O)c1)C(O)C2 (stereo not shown) | viral replication | Vero |  | IC50 | 36.2 ± 1.53 µM
Cc1ccc(N2CCN(C)CC2)cc1C(=O)NC1(c2cc(-c3cnn(C)c3)nc3ccccc23)CC1 |  |  |  | EC50 | 0.15 µM
C=C(CC)C(=O)c1ccc(OCC(=O)Nc2ccc3c(cnn3C)c2)c(Cl)c1Cl | viral replication |  |  | EC50 | 3.9 µM
O=c1c2ccccc2[se]n1Cc1ccc(Cl)cc1 | viral replication, RT-qPCR | Vero |  | EC50 | 1.78 µM
O=C(/C=C/C=C/c1ccc(O)cc1)/C=C/c1ccc(O)cc1 | antiviral activity |  |  | EC50 | 0.17 µM
Cc1ccc(CN)cc1C(=O)N[C@H](C)c1cccc2ccccc12 |  |  |  | EC50 | 24 µM

Some of these lines once more:
Structure (SMILES) | assay | system | setting | endpoint | result
O=P(O)(O)Oc1c2c(c(OP(=O)(O)O)c3c1C1CC3c3cc4c(cc31)C1CC4c3ccccc31)C1CC2c2cc3c(cc21)C1CC3c2ccccc21 | pseudoparticle entry |  | spike-pseudotyped lentiviral particles | IC50 | 36 µM
Cc1ccc(CNC(=O)c2ccc(F)c(F)c2)cc1C(=O)N[C@H](C)c1cccc2ccccc12 |  |  |  | EC50 | 3.8 µM
